Experimental data pooled from the literature.
Lines come from different studies, so protocols differ. Numbers after ± are the reported error.
BRD4 BD1: Bromodomain-containing protein 4, BD1 (BRD4, Homo sapiens, UniProt O60885)
SIRT2: NAD-dependent protein deacetylase sirtuin-2 (SIRT2, Homo sapiens, UniProt Q8IXJ6)
UniProt Q8IXJ6, sequence (whole entry, looked up): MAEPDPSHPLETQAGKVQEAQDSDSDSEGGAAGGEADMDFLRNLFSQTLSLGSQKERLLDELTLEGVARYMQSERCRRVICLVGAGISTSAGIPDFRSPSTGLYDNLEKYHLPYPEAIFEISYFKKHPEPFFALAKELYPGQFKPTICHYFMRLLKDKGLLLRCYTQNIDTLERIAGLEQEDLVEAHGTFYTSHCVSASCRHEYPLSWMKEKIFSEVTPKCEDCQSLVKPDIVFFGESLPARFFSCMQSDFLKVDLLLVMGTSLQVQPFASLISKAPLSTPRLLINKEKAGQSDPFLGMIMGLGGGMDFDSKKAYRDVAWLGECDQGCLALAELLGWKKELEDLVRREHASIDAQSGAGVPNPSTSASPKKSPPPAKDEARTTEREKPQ
Histone acetyltransferase RTT109 with Vps75: Histone acetyltransferase RTT109, with Vps75 (Saccharomyces cerevisiae, UniProt Q07794)
UniProt Q07794, sequence (whole entry, looked up): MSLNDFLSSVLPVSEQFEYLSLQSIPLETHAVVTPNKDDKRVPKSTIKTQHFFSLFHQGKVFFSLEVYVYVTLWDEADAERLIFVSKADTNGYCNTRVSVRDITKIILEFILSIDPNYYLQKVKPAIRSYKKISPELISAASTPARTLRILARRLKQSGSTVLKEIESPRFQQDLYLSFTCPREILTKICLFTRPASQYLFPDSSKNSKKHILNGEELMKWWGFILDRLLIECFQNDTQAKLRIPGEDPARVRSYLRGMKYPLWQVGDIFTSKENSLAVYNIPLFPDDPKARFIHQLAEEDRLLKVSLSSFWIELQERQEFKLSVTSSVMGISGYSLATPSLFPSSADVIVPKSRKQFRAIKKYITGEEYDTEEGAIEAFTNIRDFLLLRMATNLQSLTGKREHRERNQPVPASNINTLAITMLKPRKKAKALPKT
UCHL1: Ubiquitin carboxyl-terminal hydrolase isozyme L1 (UCHL1, Homo sapiens, UniProt P09936)
UniProt P09936, sequence (whole entry, looked up): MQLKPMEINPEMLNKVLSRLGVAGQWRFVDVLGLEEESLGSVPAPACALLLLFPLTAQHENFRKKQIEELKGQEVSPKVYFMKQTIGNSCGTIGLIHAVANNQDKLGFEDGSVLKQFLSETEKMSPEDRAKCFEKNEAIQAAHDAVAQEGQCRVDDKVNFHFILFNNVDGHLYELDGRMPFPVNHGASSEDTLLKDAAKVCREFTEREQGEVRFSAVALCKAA
Faah: Fatty-acid amide hydrolase 1 (Faah, Rattus norvegicus, UniProt P97612)
UniProt P97612, sequence (whole entry, looked up): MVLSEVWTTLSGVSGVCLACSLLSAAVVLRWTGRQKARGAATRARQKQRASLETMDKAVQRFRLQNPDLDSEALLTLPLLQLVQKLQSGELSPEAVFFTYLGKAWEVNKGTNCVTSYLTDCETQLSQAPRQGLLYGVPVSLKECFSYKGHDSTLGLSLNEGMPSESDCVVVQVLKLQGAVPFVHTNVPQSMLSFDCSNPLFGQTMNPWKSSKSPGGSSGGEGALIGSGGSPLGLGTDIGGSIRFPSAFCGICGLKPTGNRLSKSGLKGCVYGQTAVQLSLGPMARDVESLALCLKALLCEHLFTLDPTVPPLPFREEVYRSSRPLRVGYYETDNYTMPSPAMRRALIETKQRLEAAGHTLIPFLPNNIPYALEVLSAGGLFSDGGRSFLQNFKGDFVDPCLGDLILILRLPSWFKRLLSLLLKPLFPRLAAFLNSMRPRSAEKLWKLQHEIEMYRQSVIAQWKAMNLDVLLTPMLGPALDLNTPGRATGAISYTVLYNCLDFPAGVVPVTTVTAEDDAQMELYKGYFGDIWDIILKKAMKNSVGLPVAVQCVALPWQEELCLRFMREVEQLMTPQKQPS
BRD4 BD2: Bromodomain-containing protein 4, BD2 (BRD4, Homo sapiens, UniProt O60885)
UniProt P07948, sequence (whole entry, looked up): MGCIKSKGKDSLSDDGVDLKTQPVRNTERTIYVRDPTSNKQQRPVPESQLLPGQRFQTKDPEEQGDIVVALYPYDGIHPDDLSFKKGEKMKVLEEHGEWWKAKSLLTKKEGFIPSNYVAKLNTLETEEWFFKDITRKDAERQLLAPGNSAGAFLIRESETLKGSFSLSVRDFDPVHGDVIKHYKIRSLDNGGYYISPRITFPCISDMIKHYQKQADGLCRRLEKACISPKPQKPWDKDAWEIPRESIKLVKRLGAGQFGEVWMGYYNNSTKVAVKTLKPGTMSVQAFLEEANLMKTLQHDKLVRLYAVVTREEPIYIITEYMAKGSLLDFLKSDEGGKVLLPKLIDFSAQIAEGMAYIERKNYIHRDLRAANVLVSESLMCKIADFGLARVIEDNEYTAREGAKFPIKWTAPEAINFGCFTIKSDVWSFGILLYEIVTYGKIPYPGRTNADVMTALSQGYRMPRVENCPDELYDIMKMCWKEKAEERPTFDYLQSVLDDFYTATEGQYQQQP
UniProt P61823, sequence (whole entry, looked up): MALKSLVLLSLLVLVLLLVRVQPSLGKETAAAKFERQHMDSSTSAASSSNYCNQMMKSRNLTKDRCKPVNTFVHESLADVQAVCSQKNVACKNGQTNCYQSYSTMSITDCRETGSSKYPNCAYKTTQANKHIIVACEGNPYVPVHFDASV
UniProt Q9Y2H1, sequence (whole entry, looked up): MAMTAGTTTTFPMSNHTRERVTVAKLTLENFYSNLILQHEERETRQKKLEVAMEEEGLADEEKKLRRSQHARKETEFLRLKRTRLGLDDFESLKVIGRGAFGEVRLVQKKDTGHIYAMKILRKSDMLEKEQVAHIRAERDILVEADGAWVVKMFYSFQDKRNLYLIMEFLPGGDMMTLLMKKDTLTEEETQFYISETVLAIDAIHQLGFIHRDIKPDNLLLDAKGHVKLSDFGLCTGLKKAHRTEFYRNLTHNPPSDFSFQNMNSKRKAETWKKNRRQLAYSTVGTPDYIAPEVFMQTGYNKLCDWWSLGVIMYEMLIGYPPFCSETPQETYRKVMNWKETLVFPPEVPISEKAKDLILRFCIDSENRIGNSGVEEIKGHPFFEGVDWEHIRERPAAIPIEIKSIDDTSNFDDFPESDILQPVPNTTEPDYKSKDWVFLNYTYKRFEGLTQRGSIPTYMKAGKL
UniProt P49841, sequence (whole entry, looked up): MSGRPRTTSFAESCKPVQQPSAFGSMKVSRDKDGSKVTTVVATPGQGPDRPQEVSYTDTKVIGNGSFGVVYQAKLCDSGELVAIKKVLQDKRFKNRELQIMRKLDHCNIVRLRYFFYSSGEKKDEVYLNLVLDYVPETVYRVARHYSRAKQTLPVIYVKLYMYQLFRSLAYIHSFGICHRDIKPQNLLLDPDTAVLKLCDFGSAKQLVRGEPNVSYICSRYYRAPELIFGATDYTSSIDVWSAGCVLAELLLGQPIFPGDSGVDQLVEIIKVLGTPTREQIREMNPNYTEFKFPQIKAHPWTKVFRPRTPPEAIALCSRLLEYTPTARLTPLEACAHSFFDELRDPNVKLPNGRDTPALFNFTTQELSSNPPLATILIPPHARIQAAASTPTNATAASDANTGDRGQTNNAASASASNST
UniProt Q9SCZ4, sequence (whole entry, looked up): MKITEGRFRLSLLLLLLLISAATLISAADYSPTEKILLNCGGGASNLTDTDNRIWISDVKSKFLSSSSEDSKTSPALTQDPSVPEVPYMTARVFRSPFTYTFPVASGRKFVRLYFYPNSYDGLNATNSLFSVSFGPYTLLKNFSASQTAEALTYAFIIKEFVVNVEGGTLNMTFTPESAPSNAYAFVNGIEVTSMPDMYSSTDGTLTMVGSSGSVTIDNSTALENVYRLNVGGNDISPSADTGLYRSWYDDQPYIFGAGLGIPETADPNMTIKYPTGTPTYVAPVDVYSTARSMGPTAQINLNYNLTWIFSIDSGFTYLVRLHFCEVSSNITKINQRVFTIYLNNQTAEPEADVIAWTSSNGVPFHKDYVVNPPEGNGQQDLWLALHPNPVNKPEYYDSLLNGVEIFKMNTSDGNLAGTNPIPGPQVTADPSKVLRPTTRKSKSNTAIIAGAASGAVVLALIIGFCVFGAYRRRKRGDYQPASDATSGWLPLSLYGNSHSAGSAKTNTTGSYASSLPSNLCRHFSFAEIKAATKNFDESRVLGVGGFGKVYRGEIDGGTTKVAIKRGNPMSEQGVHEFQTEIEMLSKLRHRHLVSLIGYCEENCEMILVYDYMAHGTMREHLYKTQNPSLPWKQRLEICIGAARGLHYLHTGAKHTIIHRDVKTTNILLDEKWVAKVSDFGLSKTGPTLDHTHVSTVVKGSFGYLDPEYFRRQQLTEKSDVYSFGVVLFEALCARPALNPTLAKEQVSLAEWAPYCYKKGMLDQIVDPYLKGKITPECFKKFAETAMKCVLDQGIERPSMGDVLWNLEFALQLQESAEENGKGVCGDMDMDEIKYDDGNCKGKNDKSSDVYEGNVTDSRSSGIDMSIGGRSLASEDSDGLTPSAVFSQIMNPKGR
UniProt P25103, sequence (whole entry, looked up): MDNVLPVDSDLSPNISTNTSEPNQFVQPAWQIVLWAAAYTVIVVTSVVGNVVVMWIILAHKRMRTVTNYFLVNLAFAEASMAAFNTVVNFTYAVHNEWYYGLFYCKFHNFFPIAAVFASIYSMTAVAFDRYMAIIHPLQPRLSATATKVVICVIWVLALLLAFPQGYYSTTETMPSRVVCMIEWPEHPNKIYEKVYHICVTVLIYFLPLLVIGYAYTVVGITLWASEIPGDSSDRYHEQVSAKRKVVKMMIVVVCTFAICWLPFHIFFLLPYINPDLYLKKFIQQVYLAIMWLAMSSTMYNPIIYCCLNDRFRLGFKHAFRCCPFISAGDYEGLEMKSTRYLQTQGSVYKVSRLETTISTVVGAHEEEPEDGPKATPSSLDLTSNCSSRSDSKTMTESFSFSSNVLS

SMILES	target or system	assay	system	setting	quantity	value
CC[C@@H]1[C@H](F)C(=O)N[C@@H]1COc1nccc2cc(C(N)=O)c(OC)cc12	Serine/threonine-protein kinase 38-like (STK38L, Homo sapiens, UniProt Q9Y2H1)	ATP-site probe binding, ActivX profiling	THP-1 cell lysate	Lys1 site	IC50	0.99 µM
CN(C)C(=O)c1cc2cnc(Nc3ccc(-c4cccc5c(=O)cc(N6CCOCC6)oc45)cc3)nc2n1C1CCCC1	BRD4 BD1	inhibitor			IC50	0.154 µM
Cc1ccc2[nH]nc(-c3nnc(Nc4ccc(C(F)(F)F)cc4)s3)c2c1	thymidine phosphorylase	enzyme activity, inhibitor, spectrophotometric		pH 7.5, 25 °C	IC50	6.29 ± 0.38 µM
CCCCCCCCCCCCNC(=S)NCCCC[C@H](NC(=O)OCc1ccccc1)C(=O)N[C@@H](Cc1c[nH]c2ccccc12)C(=O)N[C@@H](CCCNC(=N)N)C(N)=O	SIRT2	enzyme activity, inhibitor			IC50	5.3 ± 0.5 µM
COc1cc(/C=C2\CCCC(C3(O)C(=O)Nc4ccc(Br)cc43)C2=O)cc(OC)c1OC (stereo not shown)	ERK	enzyme activity			IC50	11 µM
Cc1nnc(S)s1	Histone acetyltransferase RTT109 with Vps75	enzyme activity, inhibitor, HTS, CPM-based, dose response			IC50	> 125 µM
Cc1ccc2[nH]nc(-c3nnc(Nc4ccc(C)c(C)c4)s3)c2c1	thymidine phosphorylase	enzyme activity, inhibitor, spectrophotometric		pH 7.5, 25 °C	IC50	13.4 ± 1.09 µM
O=S(=O)(NCc1ccccc1)c1ccc2nsnc2c1	Histone acetyltransferase RTT109 with Vps75	enzyme activity, inhibitor, HTS, CPM-based, dose response			IC50	> 125 µM
OC[C@H]1O[C@@H](Oc2cc3c4c(c2)[C@@H]([C@@H]2c5cc(O)cc6c5[C@@H](c5cc(O)cc(O)c5[C@H]2c2ccc(O)cc2)[C@H](c2ccc(O)cc2)O6)[C@H](c2ccc(O)cc2)c2c(O)cc(O)cc2[C@H]4[C@H](c2ccc(O)cc2)O3)[C@H](O)[C@@H](O)[C@@H]1O	Alpha-amylase 1A (AMY1A, Homo sapiens, UniProt P0DUB6)	enzyme activity, inhibitor, HPAEC-PAD		with: maltoheptaose substrate	IC50	> 100 µM
FC(F)(F)c1cc(CO[C@H]2CCCN[C@H]2c2ccccc2)cc(C(F)(F)F)c1	Substance-P receptor (TACR1, Homo sapiens, UniProt P25103)	intracellular calcium increase, antagonist	U373 MG	with: substance P 100 nM	IC50	< 0.1 µM
N#CC(=Cc1cccc(Cl)c1Cl)C(=O)NCCc1ccccc1	UCHL1	inhibitor, ubiquitin-rhodamine cleavage		2 h preincubation	IC50	> 200 µM
Cc1cc(OC(C)C)ccc1C(=O)C(C)(C)NC(=O)c1sccc1C	succinate-cytochrome c oxidoreductase (Phaeosphaeria nodorum, UniProt A0A7U2EY10+A0A7U2FCV0+A0A7U2I8M4)	activity, succinate-cytochrome c oxidoreductase, inhibitor	Septoria nodorum, mitochondrial fraction	25 °C	IC50	0.0198 µM
O=S(=O)(NCc1ccccc1)c1ccc(Br)c2nsnc12	Histone acetyltransferase RTT109 with Vps75	enzyme activity, inhibitor, HTS, CPM-based, dose response			IC50	> 125 µM
O=C(Nc1cnccc1Cl)N1CCN(Cc2ccc3c(c2)OC(F)(F)O3)CC1	Faah	enzyme activity, inhibitor	rat brain membranes	45 min preincubation	IC50	0.161 µM
Cc1ccc(Cn2cc(COc3cccc(Cc4cnc(NC(=O)CSc5nc(C)cc(C)n5)s4)c3)nn2)cc1	SIRT2	inhibitor			IC50	0.16 ± 0.04 µM
O=C1C[C@@H](c2ccc(O[C@@H]3O[C@H](CO)[C@@H](O)[C@H](O)[C@H]3O)cc2)Oc2cc(O)ccc21	serine/threonine phosphatase Stp1 (Staphylococcus aureus, UniProt A0A0H2XF73)	phosphatase activity, inhibitor			IC50	> 239 µM
O=C1CC(Nc2ccc(Cc3nc4ccccc4[nH]3)cc2)C(=O)N1c1ccc(Br)cc1 (stereo not shown)	Histone acetyltransferase RTT109 with Vps75	enzyme activity, inhibitor, HTS, CPM-based, dose response			IC50	> 125 µM
Nc1ccn([C@@H]2O[C@H](COP(=O)(O)OP(=O)(O)O)[C@@H](O)[C@H]2O)c(=O)n1	Ribonuclease pancreatic (RNASE1, Bos taurus, UniProt P61823)	native MS, single-point		0.2 µM	Kd	4 ± 0.2 µM
O=C1CC(N(CCc2ccccc2)C(=S)Nc2ccccc2)C(=O)N1c1ccc(Br)cc1 (stereo not shown)	Histone acetyltransferase RTT109 with Vps75	enzyme activity, inhibitor, HTS, CPM-based, dose response			IC50	> 125 µM
CN1CCN(c2cc(=O)c3ccc(Nc4ncc5cc(C(=O)N(C)C)n(C6CCCC6)c5n4)cc3o2)CC1	BRD4 BD2	inhibitor			IC50	> 10 µM

SMILES	target or system	assay	system	setting	quantity	value
O=C(Nc1ccncc1)c1cc([N+](=O)[O-])ccc1Cl	Toxoplasma gondii	parasite growth	HFF, bradyzoite, alkaline-induced		EC50	1.92 µM
Cc1c(-c2ccccc2)oc2c(C(=O)O)cccc2c1=O	Anoctamin-1 (Ano1, Mus musculus, UniProt Q8BHY3)	chloride current	HEK293 transfected	at +80 mV	IC50	28.3 µM
Cc1cc(C)nc(Sc2ccc3nsnc3c2[N+](=O)[O-])n1	Histone acetyltransferase RTT109 with Vps75	enzyme activity, inhibitor, HTS, CPM-based, dose response			IC50	> 125 µM
Cc1nc(Nc2ncc(C(=O)Nc3c(C)cccc3Cl)s2)cc(N2CC[C@H](O)C2)n1	Tyrosine-protein kinase Lyn, isoform A (LYN, Homo sapiens, UniProt P07948)	enzyme activity, inhibitor			IC50	0.00016 µM
CC[C@@](N)(c1cnc(C(F)(F)F)c(Cl)c1)c1c2ncn(C3CC3)c(=O)c2nn1C	Dihydroorotate dehydrogenase (Canis lupus familiaris, UniProt A0A8I3MWX2)	enzyme activity, inhibitor, DCIP reduction			IC50	> 30 µM
CC1(C)CC[C@]2(C(=O)O)CC[C@]3(C)C(=CC[C@@H]4[C@@]5(C)CC[C@H](O)C(C)(C)[C@@H]5CC[C@]43C)[C@@H]2C1	Angiotensin-converting enzyme (ACE, Oryctolagus cuniculus, UniProt P12822)	enzyme activity			IC50	18.4 ± 1.21 µM
CN(C)C(=O)c1cc2cnc(Nc3ccc(-c4ccc5c(=O)cc(N6CCOCC6)oc5c4)cc3)nc2n1C1CCCC1	BRD4 BD2	inhibitor			IC50	> 10 µM
Cc1ccc(NC(=O)c2ccc(C)c(C(F)(F)F)c2)cc1C#Cc1nn(C2CCC(O)CC2)c2ncnc(N)c12 (stereo not shown)	Activated CDC42 kinase 1 (TNK2, Homo sapiens, UniProt Q07912)	inhibitor, radiometric kinase		with: ATP 10 µM	IC50	0.175 µM
COc1ccc(C2=NN(C3CCCCCC3)C(=O)[C@@H]3CC=CC[C@H]23)cc1-c1ccc(C(=O)NCC(N)=O)cc1 (relative stereo)	3',5'-cyclic-AMP phosphodiesterase 4B, isoform PDE4B1 (PDE4B, Homo sapiens, UniProt Q07343)	enzyme activity, inhibitor, scintillation proximity		with: 0.5 µM substrate	IC50	0.398 µM
O=C(O)c1ccc2[nH]c(-c3ccc(OCCC(O)COc4ccc(-c5nc6cc(C(=O)O)ccc6[nH]5)cc4)cc3)nc2c1 (stereo not shown)	Beta-lactamase (Escherichia coli, UniProt Q8VNN1)	enzyme activity, inhibitor			IC50	76 ± 18 µM
CN1CCN(c2ccc(Nc3ncc4cc(C#N)c(=O)n(C5CCCC5)c4n3)cc2)CC1	Glycogen synthase kinase-3 beta (GSK3B, Homo sapiens, UniProt P49841)				IC50	1.68 µM
Cc1cnc(-c2ccc(-c3ccc(NC(=O)Nc4c(F)cc(F)cc4F)cc3F)c3c2C(=O)NC3)[nH]1	Tyrosine-protein kinase Lyn, isoform B (LYN, Homo sapiens, UniProt P07948)	enzyme activity, inhibitor		with: ATP at Km	IC50	0.0069 µM
NC(=O)Nc1cc(-c2cccc(F)c2)sc1C(=O)N[C@H]1CCCNC1	Receptor-like protein kinase FERONIA (FER, Arabidopsis thaliana, UniProt Q9SCZ4)	inhibitor			IC50	0.08 µM
CCCCCCCCCCCCNC(=S)NCCCC[C@H](NC(=O)OCc1ccccc1)C(=O)N[C@@H](Cc1c[nH]c2ccccc12)C(=O)N[C@@H](CCCCN)C(N)=O	SIRT2	enzyme activity, inhibitor			IC50	3.6 ± 0.6 µM
Sc1ncnc2ccccc12	Histone acetyltransferase RTT109 with Vps75	enzyme activity, inhibitor, HTS, CPM-based, dose response			IC50	> 125 µM
COc1ccc(-c2cc(=O)c3ccc(Nc4ncc5cc(C(=O)N(C)C)n(C6CCCC6)c5n4)cc3o2)cc1	BRD4 BD1	inhibitor			IC50	1.37 µM
c1ccc2nsnc2c1	Histone acetyltransferase RTT109 with Vps75	enzyme activity, inhibitor, HTS, CPM-based, dose response			IC50	> 125 µM
O=C(Nc1cccnn1)N1CCC(=Cc2cccc(Oc3ccc(C(F)(F)F)cn3)c2)CC1	Faah	enzyme activity, inhibitor	rat brain membranes	5 min preincubation	IC50	0.0028 µM
Cc1ccc(C(=O)N(CCCN)[C@@H](c2oc3cc(Cl)ccc3c(=O)c2Cc2ccccc2)C(C)C)cc1	Toxoplasma gondii	parasite growth, luciferase reporter	HFF, tachyzoite	72 h	EC50	19.2 µM
N#CC(=Cc1ccccc1OC(F)F)C(=O)Nc1ccccc1F	UCHL1	inhibitor, ubiquitin-rhodamine cleavage		2 h preincubation	IC50	> 200 µM

Excerpt of the above:
SMILES	target or system	assay	system	setting	quantity	value
COc1ccc(C2=NN(C3CCCCCC3)C(=O)[C@@H]3CC=CC[C@H]23)cc1-c1ccc(C(=O)NCC(N)=O)cc1 (relative stereo)	3',5'-cyclic-AMP phosphodiesterase 4B, isoform PDE4B1 (PDE4B, Homo sapiens, UniProt Q07343)	enzyme activity, inhibitor, scintillation proximity		with: 0.5 µM substrate	IC50	0.398 µM
Cc1ccc(NC(=O)c2ccc(C)c(C(F)(F)F)c2)cc1C#Cc1nn(C2CCC(O)CC2)c2ncnc(N)c12 (stereo not shown)	Activated CDC42 kinase 1 (TNK2, Homo sapiens, UniProt Q07912)	inhibitor, radiometric kinase		with: ATP 10 µM	IC50	0.175 µM
OC[C@H]1O[C@@H](Oc2cc3c4c(c2)[C@@H]([C@@H]2c5cc(O)cc6c5[C@@H](c5cc(O)cc(O)c5[C@H]2c2ccc(O)cc2)[C@H](c2ccc(O)cc2)O6)[C@H](c2ccc(O)cc2)c2c(O)cc(O)cc2[C@H]4[C@H](c2ccc(O)cc2)O3)[C@H](O)[C@@H](O)[C@@H]1O	Alpha-amylase 1A (AMY1A, Homo sapiens, UniProt P0DUB6)	enzyme activity, inhibitor, HPAEC-PAD		with: maltoheptaose substrate	IC50	> 100 µM
CCCCCCCCCCCCNC(=S)NCCCC[C@H](NC(=O)OCc1ccccc1)C(=O)N[C@@H](Cc1c[nH]c2ccccc12)C(=O)N[C@@H](CCCNC(=N)N)C(N)=O	SIRT2	enzyme activity, inhibitor			IC50	5.3 ± 0.5 µM
N#CC(=Cc1cccc(Cl)c1Cl)C(=O)NCCc1ccccc1	UCHL1	inhibitor, ubiquitin-rhodamine cleavage		2 h preincubation	IC50	> 200 µM
